Assay results of several laboratories.
Lines come from different studies, so protocols differ. Values joined by “and” are separate records of one study, mostly repeats; a detail may differ. ± gives the spread as reported.
UCHL1: Ubiquitin carboxyl-terminal hydrolase isozyme L1 (UCHL1, Homo sapiens, UniProt P09936)
Sequence of UniProt P09936 (whole entry, looked up): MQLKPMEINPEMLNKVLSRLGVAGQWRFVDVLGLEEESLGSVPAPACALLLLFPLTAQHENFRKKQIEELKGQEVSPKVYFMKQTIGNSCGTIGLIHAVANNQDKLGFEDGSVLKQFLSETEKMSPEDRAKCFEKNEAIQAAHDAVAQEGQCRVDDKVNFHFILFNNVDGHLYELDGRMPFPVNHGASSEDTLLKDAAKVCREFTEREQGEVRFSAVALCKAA

O=C(O)CNC(=O)Cc1ccccc1 has a sarcomere length of 1.68 µm (ventricular cardiomyocytes, C57BL/6 mouse; dose not given, 0.14 s).
CCOC(=O)c1cc(Cl)cc(NC(=O)c2sc(Cl)cc2S(=O)(=O)N(C)c2ccc(OCC)c(OC)c2)c1 — result for “Abca1 mRNA level”: “increased” (mice, female, C57BL/6, wild-type, liver; oral gavage, dose not given, 7 days).
c1ccc(-c2n[nH]cc2-c2ccnc3ccccc23)nc1: “log2 fold change” 1.24 (kinase binding, competitor, MIB/MS competition, measured: SAK1; Candida albicans cell lysate; 10 µM; relative to: DMSO).
For O=C(COc1ccc(Cl)cc1)NC12CC(c3nnc([C@H]4C[C@@H](OC(F)(F)F)C4)o3)(C1)C2, “CHAC1 mRNA change” read -47% (healthy human, PBMC; oral, 45 mg single dose, day 2, 24 h post-dose, median, together with: sodium arsenite ex vivo; relative to: baseline).
The labelling of O=Cc1cc([N+](=O)[O-])c(Cl)cc1Cl is reported as 7.95% (UCHL1; covalent, intact protein LC-MS; 12.5 µM).
O=C1Nc2cc3[nH]nc(-c4ccncc4)c3cc2CN1Cc1ccccc1 — result for “complete response, best response”: 0% (RECIST v1.1; human, relapsed or refractory advanced solid tumours; intravenous, 4.8 mg/kg).
C[C@]12CC[C@@H]3c4ccc(O)cc4CC[C@H]3[C@@H]1CC[C@@H]2O has a mRNA level of 0.0047 and 0.0059 (RT-qPCR, measured: CO; Arabidopsis thaliana ING1:FLAG seedlings; dose not given, 4 h, unit not given; relative to: TUB2).
COC[C@@H](c1ccc(C(F)(F)F)cc1)N1CCN(C2(C)CCN(C(=O)c3c(C)ncnc3C)CC2)C[C@@H]1C — result for “change in HIV-1 RNA”: -2.31 log10 copies/mL (HIV-1 infected patients, plasma; 10 mg, week 16, with optimized background regimen; relative to: baseline).
CN(C(=O)n1cnc(-c2ccc[n+]([O-])c2)c1)C1CCCCC1 gave an AUC(0-t) of 816 ng·h/mL (measured: OEA; human, plasma; 100 mg single dose).
The metabolite level of C[C@@H](O)CCOC(=O)C[C@@H](C)O is reported as -3.5 ± 1.08 µmol/L (measured: C6-DC/C8-OH acylcarnitine; human, plasma; 60 min, log2-transformed values).
For CN[C@@H]1COc2c(S(=O)(=O)NC(=O)Nc3c4c(cc5c3CCC5)CCC4)cnn2C1, the inhibition was 94% (measured: IL-18; human participants, whole blood ex vivo; 450 mg single dose, 1 h, IL-18, circulating, adjusted for, together with: LPS/ATP; relative to: baseline).
C=Cc1c(C)c2cc3nc(c(CC(=O)O)c4[nH]c(cc5nc(cc1[nH]2)C(C)=C5CC)c(C)c4C(=O)O)[C@@H](CCC(=O)O)[C@@H]3C has a PD-L1+ cells of 1.94% and 2% and 2.03% (flow cytometry; mouse, 4T1 tumour-bearing; dose not given, 1 h).
For Cc1n[nH]c2ccc(-c3cc(OC[C@@H](N)Cc4ccccc4)cnc3-c3ccoc3)cc12, “log2 fold change” read -0.226 (kinase binding, competitor, MIB/MS competition, measured: TOR1; Candida albicans cell lysate; 100 nM; relative to: DMSO).
With CC1(C)CCC(CN2CCN(c3ccc(C(=O)NS(=O)(=O)c4ccc(NCC5CCOCC5)c([N+](=O)[O-])c4)c(Oc4cnc5[nH]ccc5c4)c3)CC2)=C(c2ccc(Cl)cc2)C1 the EC50 was 1.65 µM (cell kill, PI exclusion flow cytometry; circulating neoplastic cells, human, peripheral blood; 24 h).
With COc1cc2nccc(Oc3ccc(NC(=O)NC4CC4)c(Cl)c3)c2cc1C(N)=O the Hill coefficient was 0.292 (measured: Tie-2; human, serum; PK/PD model, bootstrap median).
COc1cc(O)c(CC=C(C)C)c(O)c1C(=O)/C=C/c1ccc(O)cc1: “fat pad weight, % body weight” “no effect” (male Tac:SW mice, conventional and germ-free; in high-fat diet, dose not given, 10 weeks; relative to: high-fat diet alone).
Cn1cc(Nc2nccc(-c3ccc4c(c3)CN(C3COC3)CC[C@H]4NC(=O)c3cn(C(C)(C)C)nn3)n2)cn1: “pathway activation z-score” 2.24 (measured: Ethanol Degradation II; splenic B cells, Mus musculus; 30 mg/kg, together with: IgD activation; relative to: vehicle, direction not given).
The necrotic area of Cc1c(NC(=O)c2cccnc2)c(=O)n(-c2ccccc2)n1C is reported as 4.1% and 5.7% and 5.1% and 6.2% and 2.6% (histology; Dmd C3333Y mice, gastrocnemius; dose not given).
N#CC(=Cc1ccc(F)cc1)C(=O)NCCc1cccc(Cl)c1 has a labelling of 13.5% (UCHL1; covalent, intact protein LC-MS; 12.5 µM).
For N#Cc1ccn2c(-c3ccncc3)c(-c3ccc(F)cc3)nc2c1, “log2 fold change” read -0.774 (kinase binding, competitor, MIB/MS competition, measured: NIK1; Candida albicans cell lysate; 1 µM; relative to: DMSO).
NC(=O)c1cnc2[nH]ccc2c1N[C@@H]1[C@@H]2CC3C[C@H]1C[C@@](O)(C3)C2: “change from baseline” -0.15% (flow cytometry, measured: CD8+ effector T cells; Japanese healthy subjects, peripheral blood; oral, 30 mg twice daily, day 4).
CC(C)NCC(O)c1ccc(O)c(O)c1 (centres unmarked) gave a sarcomere length of 1.58 µm (ventricular cardiomyocytes, C57BL/6 mouse; dose not given, 0.48 s).
CO[C@H]1CC[C@H](N2C(=O)CNc3ncc(-c4ccc(C(C)(C)O)nc4)nc32)CC1: “p4EBP1 change from baseline” -33.2% (flow cytometry; stimulated T cells, human, blood; 30 mg single dose, 24 h, median; relative to: baseline).
Nc1nc2cc(-c3ccc4ncc(C(=O)N5CCOCC5)n4c3)ccc2o1 — result for “clinical benefit rate”: 34% (RECIST v1.1; advanced solid tumour patients; dose not given, all schedules).
Cc1ccc([C@@H]2O[C@H](CO)[C@@H](O)[C@H](O)[C@H]2O)cc1Cc1ccc(-c2ccc(F)cc2)s1 — result for “change in 24-h mean serum insulin”: -4 µU/mL (Japanese type 2 diabetes patients; 25 mg, day 16; relative to: day 0).
For CCN(Cc1nc2c(N)nc3cc(-c4cc[nH]n4)ccc3c2[nH]1)C(C)=O, “mean fold change” read 1.5 (immunohistochemistry, measured: NK cells; patients with advanced solid tumours, injected tumour lesions; dose not given, monotherapy; relative to: baseline).
The inhibition of Oc1ccc(Br)cc1C=NCCN1CCOCC1 is reported as 28.7% (nitric oxide scavenging; 160 µM).
C[C@H](Oc1ccc(Br)cc1-c1ccon1)C(=O)O: “difference from placebo” 2.56% (first response latency; human, tibialis anterior muscle; 1200 mg, 30 Hz, single ascending dose).
N#Cc1ccc2c(-c3ccncc3)c(-c3ccc(F)cc3)nn2c1 — result for “log2 fold change”: -0.478 (kinase binding, competitor, MIB/MS competition, measured: SHA3; Candida albicans cell lysate; 1 µM; relative to: DMSO).
CN(C)C(=O)Oc1cccc([N+](C)(C)C)c1 gave a train-of-four ratio of 81.1 (neuromuscular block reversal; rat; dose not given, 10.5 (unit not given), together with: cisatracurium; relative to: T1 twitch).
For CCCCCN1C[C@H](O)[C@@H](O)[C@H](O)[C@@H]1CO, “number of increased sphingolipids” read 0 (mouse Hexb-/-, liver; 300 mg/kg/day; relative to: untreated Hexb-/- mice).
NS(=O)(=O)OC[C@@H]1C[C@@H](n2ccc3c(N[C@H]4CCc5ccccc54)ncnc32)C[C@@H]1O — result for gene expression: “increased” (measured: NAE-regulated genes (NQO1, SRXN1, TXNRD1, GCLM, GSR, SLC7A11, ATF3); PBMCs, human patients; dose not given).
For CSCCNc1nc(SCCC(F)(F)F)nc2c1ncn2[C@@H]1O[C@H](COP(=O)(O)OP(=O)(O)C(Cl)(Cl)P(=O)(O)O)[C@@H](O)[C@H]1O, “patients with high reactivity” read 71.1% (ADP-induced platelet aggregation, LTA, >46% aggregation; human patients, platelet-rich plasma; dose not given, 4 to 6 h, together with: ADP 5 µM).
The fold change of COc1ccc(-c2cncc(N[C@@H](C)c3cccc(NC(=O)c4cncc(C)c4)c3)n2)cc1OC is reported as 0.732 (measured: rno-miR-24-3p; rat SU5416/hypoxia model, lung; dose not given; relative to: SU5416/hypoxia vehicle).
For COc1ccccc1[C@H](Cn1c(=O)n(C(C)(C)C(=O)O)c(=O)c2c(C)c(-c3ncco3)sc21)OC1CCOCC1, “blood VLDL level” read 23.8 ± 5.33 mg/dL (human; 20 mg, post-treatment).
CN(C)C(=O)c1cc2cnc(Nc3ccc(N4CCNCC4)cn3)nc2n1C1CCCC1: “GSEA enrichment score” 0.3 (RNA-seq GSEA, measured: HALLMARK_NOTCH_SIGNALING; MB002 tumour; concentration not given, in vivo; relative to: vehicle, direction not given).
With CC(C)n1c(C2CCNCC2)nc2c([N+](=O)[O-])c(Br)c(Br)cc21 the maximum reduction was -99% (measured: blasts; AML patients IDH mutated, bone marrow; dose not given, all doses).
Under “change in fasting glucose”, N#Cc1ccc2c(c1)[C@H]1CCCN(C(=O)c3ccc4[nH]cnc4c3)[C@H]1C2 is recorded as 15% (human, plasma; 160 mg, day 15, 360 h; relative to: placebo and baseline).
O=[N+]([O-])c1cc2c3ccccc3ccc2c2ccccc12: “plasma cytokine levels” “no effect” (ELISA, measured: inflammatory cytokines; rats, plasma; intramammary injection, dose not given, 24 h).
C=CCn1c(=O)c2cnc(Nc3ccc(N4CCN(C)CC4)cc3)nc2n1-c1ccc2c(n1)[C@@](O)(CC)CC2 — result for “tumour growth inhibition”: 49.9% (AN3-CA xenograft, BALB/c nude mice; oral, 80 mg/kg, day 12, once daily x 15).
For NCC(=O)Nc1cncc(-c2nn3c(=O)cc(N4CCNCC4)nc3s2)c1, the inhibition was 76.9% (ADP-induced platelet aggregation, light transmission aggregometry; human, stable CAD on aspirin, ex vivo platelets; subcutaneous, 0.05 mg/kg, 15 min post-dose, mean value, together with: ADP 20 µM).
C[C@H]1C[C@H]2CSC(N)=N[C@@]2(c2nc(NC(=O)c3ccc(OC(F)F)cn3)cs2)CO1: “percent change from baseline” -50.4% (measured: Aβx-40; healthy adults, plasma; 15 mg once daily, day 4; relative to: placebo).
N#Cc1ccc2c(c1)[C@H]1CCCN(C(=O)c3ccc4[nH]cnc4c3)[C@H]1C2 gave an HOMA-IR change of 1 mmol/L × mU/L (human, Phase II trial; 80 mg once daily, day 28, adjusted mean; relative to: baseline).
For Cc1nn(-c2nc3c(F)cc(F)cc3s2)c(O)c1C(c1ccc(C(F)(F)F)cc1)c1c(C)nn(-c2nc3c(F)cc(F)cc3s2)c1O, the pancreas weight was 0.166 g and 0.201 g and 0.173 g and 0.174 g and 0.196 g (mouse, cerulein-induced acute pancreatitis; 25 mg/kg).
CO[C@H]1/C=C/O[C@@]2(C)Oc3c(C)c(O)c4c(O)c(c(/C=N/N5CCN(C)CC5)c(O)c4c3C2=O)NC(=O)/C(C)=C\C=C\[C@H](C)[C@H](O)[C@@H](C)[C@@H](O)[C@@H](C)[C@H](OC(C)=O)[C@@H]1C has a mRNA level of 2.8 fold (induction, measured: ABCB1 (P-gp); EpiIntestinal microtissues; 100 µM, 72 h; relative to: DMSO).
OC(CCN1CCCCC1)(c1ccccc1)C1CC2C=CC1C2 (centres unmarked) — result for “EEG Beta3-power Fz-Cz”: 1.9 µV² (resting-state EEG; healthy elderly humans; oral, 4 mg, eyes closed, LS mean).
O=P(O)(O)C(Cl)(Cl)P(=O)(O)O has an Iba1-positive area of 2.78% and 3.01% and 2.79% (Mus musculus, subarachnoid haemorrhage, meninges; concentration not given, day 7; relative to: total area).
